Assay results gathered from unrelated publications.
Protocols differ between the studies behind these lines. ± gives the spread as reported.
KCNH2: Voltage-gated inwardly rectifying potassium channel KCNH2 (KCNH2, Homo sapiens, UniProt Q12809)

By UniProt entry, the sequences of proteins in these tests, tags left out. Residues count along the entry.
UniProt Q12809, whole entry: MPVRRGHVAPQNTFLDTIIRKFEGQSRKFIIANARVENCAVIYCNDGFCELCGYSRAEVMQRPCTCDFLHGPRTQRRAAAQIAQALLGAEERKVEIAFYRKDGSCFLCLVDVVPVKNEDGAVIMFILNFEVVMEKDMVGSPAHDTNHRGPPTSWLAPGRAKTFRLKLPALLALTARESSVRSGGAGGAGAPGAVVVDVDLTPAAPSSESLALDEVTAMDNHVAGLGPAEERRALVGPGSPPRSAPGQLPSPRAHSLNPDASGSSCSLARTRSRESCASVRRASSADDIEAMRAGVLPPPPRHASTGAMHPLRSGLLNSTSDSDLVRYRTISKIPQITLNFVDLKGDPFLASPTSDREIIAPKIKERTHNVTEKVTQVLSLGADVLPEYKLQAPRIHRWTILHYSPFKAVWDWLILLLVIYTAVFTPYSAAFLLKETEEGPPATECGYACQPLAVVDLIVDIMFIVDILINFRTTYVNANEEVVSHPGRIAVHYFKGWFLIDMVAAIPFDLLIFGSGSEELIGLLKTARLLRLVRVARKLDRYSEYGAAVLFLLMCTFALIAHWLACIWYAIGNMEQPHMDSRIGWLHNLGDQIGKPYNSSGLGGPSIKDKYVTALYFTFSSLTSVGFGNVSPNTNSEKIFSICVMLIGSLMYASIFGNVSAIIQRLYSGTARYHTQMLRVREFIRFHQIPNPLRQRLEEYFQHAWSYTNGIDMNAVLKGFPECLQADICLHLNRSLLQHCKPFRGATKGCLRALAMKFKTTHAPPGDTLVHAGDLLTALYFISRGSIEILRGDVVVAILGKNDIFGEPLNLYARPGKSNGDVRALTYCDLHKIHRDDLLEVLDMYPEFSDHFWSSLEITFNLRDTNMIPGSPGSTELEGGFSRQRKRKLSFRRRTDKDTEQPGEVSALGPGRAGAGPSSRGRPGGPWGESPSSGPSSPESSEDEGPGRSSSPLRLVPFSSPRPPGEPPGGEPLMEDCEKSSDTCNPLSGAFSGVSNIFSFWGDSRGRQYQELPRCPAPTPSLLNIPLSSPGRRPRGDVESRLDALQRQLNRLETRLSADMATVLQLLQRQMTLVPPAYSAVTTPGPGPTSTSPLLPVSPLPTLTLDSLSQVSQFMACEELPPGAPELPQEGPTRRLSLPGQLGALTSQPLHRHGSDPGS
UniProt P10636, whole entry, looked up: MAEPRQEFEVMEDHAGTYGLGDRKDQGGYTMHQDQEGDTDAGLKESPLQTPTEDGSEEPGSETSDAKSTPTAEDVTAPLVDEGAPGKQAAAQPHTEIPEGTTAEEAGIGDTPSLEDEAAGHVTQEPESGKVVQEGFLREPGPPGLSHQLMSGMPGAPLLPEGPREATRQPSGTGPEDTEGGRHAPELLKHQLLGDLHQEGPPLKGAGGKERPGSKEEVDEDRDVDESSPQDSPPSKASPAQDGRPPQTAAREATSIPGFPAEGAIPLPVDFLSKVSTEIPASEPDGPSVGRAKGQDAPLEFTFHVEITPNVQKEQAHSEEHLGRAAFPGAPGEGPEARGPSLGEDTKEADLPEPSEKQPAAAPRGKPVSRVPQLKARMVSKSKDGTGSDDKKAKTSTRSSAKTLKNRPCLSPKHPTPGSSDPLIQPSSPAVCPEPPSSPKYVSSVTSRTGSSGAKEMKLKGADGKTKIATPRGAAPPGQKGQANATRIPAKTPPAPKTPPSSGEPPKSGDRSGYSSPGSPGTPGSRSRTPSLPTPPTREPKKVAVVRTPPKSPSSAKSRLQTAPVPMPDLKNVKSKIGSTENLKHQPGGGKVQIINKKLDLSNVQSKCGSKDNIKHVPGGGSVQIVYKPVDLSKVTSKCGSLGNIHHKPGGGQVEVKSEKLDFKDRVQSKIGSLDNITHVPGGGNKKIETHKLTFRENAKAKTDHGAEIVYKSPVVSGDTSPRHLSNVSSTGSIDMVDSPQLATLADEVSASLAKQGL
UniProt Q63380, 1-617: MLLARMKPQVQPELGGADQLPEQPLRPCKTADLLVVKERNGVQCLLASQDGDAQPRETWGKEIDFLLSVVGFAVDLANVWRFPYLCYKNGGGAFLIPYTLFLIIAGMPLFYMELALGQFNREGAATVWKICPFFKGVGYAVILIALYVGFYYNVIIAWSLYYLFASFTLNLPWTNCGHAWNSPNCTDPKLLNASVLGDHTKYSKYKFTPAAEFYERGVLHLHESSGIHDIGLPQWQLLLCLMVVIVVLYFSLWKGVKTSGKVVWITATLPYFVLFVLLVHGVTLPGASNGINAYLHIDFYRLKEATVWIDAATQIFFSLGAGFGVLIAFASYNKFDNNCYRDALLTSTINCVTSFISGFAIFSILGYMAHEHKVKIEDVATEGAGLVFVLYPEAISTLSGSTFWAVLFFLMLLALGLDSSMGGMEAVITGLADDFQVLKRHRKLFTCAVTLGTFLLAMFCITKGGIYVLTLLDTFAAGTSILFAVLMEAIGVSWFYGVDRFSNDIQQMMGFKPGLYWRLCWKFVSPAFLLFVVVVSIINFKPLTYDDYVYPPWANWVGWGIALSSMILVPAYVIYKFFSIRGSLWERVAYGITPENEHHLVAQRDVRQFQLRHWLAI
UniProt P09769, whole entry: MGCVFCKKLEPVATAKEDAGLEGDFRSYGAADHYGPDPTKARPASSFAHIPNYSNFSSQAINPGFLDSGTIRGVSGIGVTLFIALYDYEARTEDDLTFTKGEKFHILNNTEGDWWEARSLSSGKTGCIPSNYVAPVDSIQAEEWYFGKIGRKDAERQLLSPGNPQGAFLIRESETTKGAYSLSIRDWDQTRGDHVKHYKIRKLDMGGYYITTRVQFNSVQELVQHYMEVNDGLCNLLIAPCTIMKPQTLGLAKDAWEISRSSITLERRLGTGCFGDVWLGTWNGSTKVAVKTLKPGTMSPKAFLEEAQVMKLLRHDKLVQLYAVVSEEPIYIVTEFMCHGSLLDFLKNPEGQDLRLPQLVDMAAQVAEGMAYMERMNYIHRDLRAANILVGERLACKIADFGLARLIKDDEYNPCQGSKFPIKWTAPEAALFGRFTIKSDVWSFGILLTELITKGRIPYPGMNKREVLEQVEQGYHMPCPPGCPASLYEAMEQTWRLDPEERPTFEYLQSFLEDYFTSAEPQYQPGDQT
UniProt P51532, whole entry: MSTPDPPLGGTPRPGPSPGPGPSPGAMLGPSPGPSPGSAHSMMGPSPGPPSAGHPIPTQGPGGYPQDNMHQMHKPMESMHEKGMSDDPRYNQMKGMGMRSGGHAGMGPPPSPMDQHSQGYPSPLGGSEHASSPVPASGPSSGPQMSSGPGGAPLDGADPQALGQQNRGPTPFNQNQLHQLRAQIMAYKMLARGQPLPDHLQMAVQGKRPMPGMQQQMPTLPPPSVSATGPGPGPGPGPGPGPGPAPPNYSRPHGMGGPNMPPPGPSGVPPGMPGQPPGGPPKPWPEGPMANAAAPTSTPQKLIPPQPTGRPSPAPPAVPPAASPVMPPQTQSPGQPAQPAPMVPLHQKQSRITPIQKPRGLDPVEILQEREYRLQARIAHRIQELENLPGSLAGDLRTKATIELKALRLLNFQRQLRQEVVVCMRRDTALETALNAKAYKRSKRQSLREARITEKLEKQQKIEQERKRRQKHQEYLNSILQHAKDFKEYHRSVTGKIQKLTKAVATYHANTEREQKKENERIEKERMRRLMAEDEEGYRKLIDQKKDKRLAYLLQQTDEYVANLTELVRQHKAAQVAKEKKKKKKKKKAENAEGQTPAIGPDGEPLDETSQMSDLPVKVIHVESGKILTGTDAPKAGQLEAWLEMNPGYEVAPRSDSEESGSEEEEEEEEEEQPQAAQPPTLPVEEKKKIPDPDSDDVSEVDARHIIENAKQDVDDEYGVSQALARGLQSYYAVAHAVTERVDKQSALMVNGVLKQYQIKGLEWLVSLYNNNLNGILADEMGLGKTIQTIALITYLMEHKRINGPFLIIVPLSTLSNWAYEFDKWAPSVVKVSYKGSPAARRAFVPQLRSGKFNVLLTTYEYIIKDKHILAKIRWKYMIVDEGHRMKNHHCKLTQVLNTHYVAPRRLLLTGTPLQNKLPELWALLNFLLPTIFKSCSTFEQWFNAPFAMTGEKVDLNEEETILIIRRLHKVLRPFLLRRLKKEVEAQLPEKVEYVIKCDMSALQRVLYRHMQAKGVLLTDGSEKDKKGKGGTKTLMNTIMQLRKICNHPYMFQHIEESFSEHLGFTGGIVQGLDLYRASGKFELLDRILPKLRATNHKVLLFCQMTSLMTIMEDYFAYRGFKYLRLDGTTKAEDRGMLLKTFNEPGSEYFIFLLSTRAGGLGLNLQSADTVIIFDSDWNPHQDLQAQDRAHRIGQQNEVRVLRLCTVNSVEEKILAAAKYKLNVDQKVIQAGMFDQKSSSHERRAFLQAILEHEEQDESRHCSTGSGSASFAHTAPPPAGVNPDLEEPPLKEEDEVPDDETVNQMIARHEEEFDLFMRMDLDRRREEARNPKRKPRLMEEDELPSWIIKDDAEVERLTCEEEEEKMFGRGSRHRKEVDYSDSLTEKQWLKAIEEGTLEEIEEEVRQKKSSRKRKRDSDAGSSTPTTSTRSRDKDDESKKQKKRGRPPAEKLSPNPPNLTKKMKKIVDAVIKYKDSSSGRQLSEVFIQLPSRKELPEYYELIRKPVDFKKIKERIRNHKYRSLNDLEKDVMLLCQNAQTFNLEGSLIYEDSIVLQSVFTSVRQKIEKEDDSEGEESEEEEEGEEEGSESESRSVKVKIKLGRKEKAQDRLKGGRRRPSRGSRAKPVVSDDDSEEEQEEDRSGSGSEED

COc1cc(CC(=O)NCC(NC(=O)C(CCCNC(=O)c2cccc(I)c2)NC(=O)C(Cc2ccc(C(F)(F)P(=O)(O)O)cc2)NC(=O)c2ccc(C)c(Br)c2)C(N)=O)ccc1O (stereo not shown)
Vdss (HPLC-MS/MS; mouse, plasma; intravenous, 5 mg/kg): 0.007 L

Fc1cc(-c2ccc3c(n2)[nH]c2ccncc23)ccn1 [isotope labelled]
specific binding (Microtubule-associated protein tau, paired helical filaments (MAPT, Homo sapiens, UniProt P10636); radioligand binding; PHF tau brain homogenate; 1.29 nM; higher = more binding): 1.41 a.u.

CCc1c(-c2ccccc2)nn2c(=O)cc(-c3cccc(C(=O)O)c3)[nH]c12
plasma level (mouse; 2 mg/kg, 10 h): not detected

Fc1cccc(-n2cnc3c(NCc4nc5cc(Cl)ccc5[nH]4)nc(N4CCNCC4)nc32)c1
remaining binding (FLT3 N841L; KINOMEscan competition binding; 10 µM; relative to: control): 13%

CCCN1CCN(c2ccc3c(c2)C2CC3CCN2C(=O)OCc2ccccc2)CC1 (stereo not shown)
Ki (KCNH2; binding, radioligand binding): 695 nM

c1nn(C2CCOCC2)cc1Nc1ncc2nnn(-c3ccc4cn[nH]c4c3)c2n1
cytotoxicity (U-251 expressing Fluc; luminescence decrease, luciferase reporter; concentration not given, 6 h; relative to: untreated): 32 ± 7%

NC(=O)c1ccc(-n2cccc2Cc2ccccc2O)cc1N[C@H]1CC[C@H](O)CC1
viability (MDA-MB-231; 25 µM, 72 h): > 95%

CCOc1ccc2cc(-c3nn(CC4CCN(C)CC4)c4ncnc(N)c34)ccc2n1
IC50 (KCNH2; inhibitor): 1510 nM

O=C(Nc1cccnn1)N1CC(Oc2ccc(-c3ccccc3F)cn2)C1
time to steady state (refers to: trough concentration; healthy humans; oral, repeated once-daily dosing): 2 to 3 days

C[C@H]1CCCN1Cc1cc2cnc(NC(=O)c3ccc4c(cnn4C)c3)cc2[nH]1
colony formation (human CD34+ cord blood cells; 1 and 10 µM, normal progenitor cells): no effect

N=C(N)NCCc1ccc(OCCCF)c(I)c1
heart to blood ratio (Transporter (Slc6a2, Rattus norvegicus, UniProt Q63380); healthy Wistar rat, heart; iv, 10 min, biodistribution): 5.9 ± 0.4

CCN1CCN(Cc2ccc(NC(=O)c3ccc(C)c(Oc4ncnc5cc(OC)c(OC)cc45)c3)cc2C(F)(F)F)CC1
selectivity ratio (Tyrosine-protein kinase Fgr (FGR, Homo sapiens, UniProt P09769); in vitro kinase; lower bound; relative to: other kinases IC50 over FGR): > 1000 fold

CC[C@@H]1C(=O)N(C)c2cnc(Nc3ccc(C(=O)NC4CCN(C)CC4)cc3OC)nc2N1C1CCCC1
ΔTm (SWI/SNF-related matrix-associated actin-dependent regulator of chromatin subfamily A member 4 (SMARCA4, Homo sapiens, UniProt P51532); thermal stability; 10 µM): -0.24 ± 0.02 °C

Repeated from above:
CCCN1CCN(c2ccc3c(c2)C2CC3CCN2C(=O)OCc2ccccc2)CC1 (stereo not shown)
Ki (KCNH2; binding, radioligand binding): 695 nM
